Measurements gathered from unrelated publications.
Lines come from different studies, so protocols differ.
Cell line: SW480

COC(=O)CCC(=O)[O][Pt-2]1([Cl])([Cl])([O]C)[NH2+]CC[N+]1(C)C  IC50 (cell growth or viability, MTT; 96 h): 4.7 µM
CCCc1c(O)c(O)cc(C(=O)O)c1COC1OC(CO)C(O)C(O)C1O (stereo not shown)  mRNA level (Wnt/β-catenin signalling, RT-qPCR, measured: Wnt target genes; 25 µM, 6 h): no effect
Cc1ccc(C(C)C)cc1.Cc1ncc(CO)c(C=NNC2=Nc3ccccc3-c3[nH]c4ccc(Br)cc4c3C2)c1O.[Cl-].[Cl][Ru+]  apoptotic cells (annexin V/PI flow cytometry; 5 µM, 48 h, early plus late apoptosis): 35%
COc1c(O)cc2oc3cc4c(c(O)c3c(=O)c2c1CC(O)C(C)(C)O)CC(O)O4 (stereo not shown)  IC50 (cell growth or viability; 48 h): > 40 µM
Cc1ccc(C(C)C)cc1.Oc1ccccc1C=NNC1=Nc2ccccc2-c2[nH]c3ccc(Br)cc3c2C1.[Cl-].[Cl][Os+]  apoptotic cells (annexin V/PI flow cytometry; 5 µM, 48 h, early plus late apoptosis): 31%
C[N+]1(C)CC[NH2+][Pt-2]1([OH])([Cl])([Cl])[O]C(=O)CCC(=O)O  IC50 (cell growth or viability, MTT; 96 h): 75 µM
COc1c(OCc2ccccc2)cc2oc3cc(OCc4ccccc4)c(CC=C(C)C)c(O)c3c(=O)c2c1CC=C(C)C  IC50 (cell growth or viability; 48 h): 15.8 µM
O=C(/C=C/c1ccc(O)cc1)OC(CO)C(=O)O (stereo not shown)  mRNA level (Wnt/β-catenin signalling, RT-qPCR, measured: Wnt target genes; 25 µM, 6 h): no effect
COc1c(O)cc2oc3cc(O)c4c(c3c(=O)c2c1CCC(C)(C)O)OC(C)(C)CC4  IC50 (cell growth or viability; 48 h): > 40 µM
CCCC(C)NC(=O)C(Nc1ccccc1C(=O)c1ccccc1)c1cn(C)c2ccccc12 (stereo not shown)  GI50 (cell growth or viability, MTT; 72 h): 6 µM

Repeated from above:
CCCC(C)NC(=O)C(Nc1ccccc1C(=O)c1ccccc1)c1cn(C)c2ccccc12 (stereo not shown)  GI50 (cell growth or viability, MTT; 72 h): 6 µM
